Measurements pooled from the literature.
Each line is one published result; not all experiments were run side by side. Numbers after ± are the reported error.
PDIA3: Protein disulfide-isomerase A3 (PDIA3, Homo sapiens, UniProt P30101)
Chain of UniProt P30101 (whole entry, looked up): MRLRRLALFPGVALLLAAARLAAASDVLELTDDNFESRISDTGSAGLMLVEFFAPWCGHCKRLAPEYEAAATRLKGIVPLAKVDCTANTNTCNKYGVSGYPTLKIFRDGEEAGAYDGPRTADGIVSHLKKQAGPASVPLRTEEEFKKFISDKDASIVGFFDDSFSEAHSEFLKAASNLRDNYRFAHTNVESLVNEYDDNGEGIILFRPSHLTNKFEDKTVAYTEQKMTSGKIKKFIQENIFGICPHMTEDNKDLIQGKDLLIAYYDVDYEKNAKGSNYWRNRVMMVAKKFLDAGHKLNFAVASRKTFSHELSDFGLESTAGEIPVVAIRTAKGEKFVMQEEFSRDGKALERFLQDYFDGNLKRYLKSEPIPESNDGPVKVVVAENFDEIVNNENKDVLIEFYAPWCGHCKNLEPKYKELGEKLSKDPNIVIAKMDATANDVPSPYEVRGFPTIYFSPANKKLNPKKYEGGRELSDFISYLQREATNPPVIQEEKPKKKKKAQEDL
NNMT: Nicotinamide N-methyltransferase (NNMT, Homo sapiens, UniProt P40261)
Chain of UniProt P40261 (whole entry, looked up): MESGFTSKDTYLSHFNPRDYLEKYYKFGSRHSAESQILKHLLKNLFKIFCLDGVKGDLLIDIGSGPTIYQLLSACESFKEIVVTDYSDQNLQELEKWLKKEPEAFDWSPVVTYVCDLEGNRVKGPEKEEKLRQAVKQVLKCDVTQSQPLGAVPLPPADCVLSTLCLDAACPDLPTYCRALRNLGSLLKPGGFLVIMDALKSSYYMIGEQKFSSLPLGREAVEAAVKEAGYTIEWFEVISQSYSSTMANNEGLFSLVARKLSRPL
Chain of UniProt P26718 (whole entry, looked up): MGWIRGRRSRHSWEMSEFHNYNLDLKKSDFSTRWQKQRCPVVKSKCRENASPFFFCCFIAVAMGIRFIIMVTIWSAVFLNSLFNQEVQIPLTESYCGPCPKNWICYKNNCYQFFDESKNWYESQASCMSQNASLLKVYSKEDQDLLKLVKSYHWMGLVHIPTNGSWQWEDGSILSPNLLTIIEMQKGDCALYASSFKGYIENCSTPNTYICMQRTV
Chain of UniProt P63104 (whole entry, looked up): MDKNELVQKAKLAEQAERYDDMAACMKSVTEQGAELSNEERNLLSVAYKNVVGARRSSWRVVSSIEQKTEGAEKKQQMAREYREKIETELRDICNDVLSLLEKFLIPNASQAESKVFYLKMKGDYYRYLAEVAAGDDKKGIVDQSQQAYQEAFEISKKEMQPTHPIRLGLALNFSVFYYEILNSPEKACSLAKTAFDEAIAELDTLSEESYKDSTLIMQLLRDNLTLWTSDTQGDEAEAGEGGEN
Chain of UniProt P05067 (whole entry, looked up): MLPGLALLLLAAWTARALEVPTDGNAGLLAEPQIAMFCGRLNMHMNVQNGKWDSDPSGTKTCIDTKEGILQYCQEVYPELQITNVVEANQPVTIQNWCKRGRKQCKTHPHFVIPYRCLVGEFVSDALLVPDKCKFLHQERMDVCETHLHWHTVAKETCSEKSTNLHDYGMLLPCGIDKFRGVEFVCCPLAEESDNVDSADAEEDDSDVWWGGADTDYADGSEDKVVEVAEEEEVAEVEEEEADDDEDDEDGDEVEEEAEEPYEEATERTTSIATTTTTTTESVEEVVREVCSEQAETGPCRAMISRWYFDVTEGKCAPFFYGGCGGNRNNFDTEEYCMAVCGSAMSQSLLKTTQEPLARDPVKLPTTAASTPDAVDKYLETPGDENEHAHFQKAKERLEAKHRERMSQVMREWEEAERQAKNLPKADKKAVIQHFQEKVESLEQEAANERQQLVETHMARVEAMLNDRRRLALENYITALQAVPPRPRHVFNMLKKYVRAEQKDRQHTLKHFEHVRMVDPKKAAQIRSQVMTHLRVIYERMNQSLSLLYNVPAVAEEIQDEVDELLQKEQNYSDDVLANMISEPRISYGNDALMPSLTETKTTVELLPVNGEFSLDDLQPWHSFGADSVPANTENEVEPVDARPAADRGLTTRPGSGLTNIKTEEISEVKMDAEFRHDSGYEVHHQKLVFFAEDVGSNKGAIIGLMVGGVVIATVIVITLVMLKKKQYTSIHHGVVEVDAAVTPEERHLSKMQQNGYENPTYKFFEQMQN
Chain of UniProt Q86TU7 (whole entry, looked up): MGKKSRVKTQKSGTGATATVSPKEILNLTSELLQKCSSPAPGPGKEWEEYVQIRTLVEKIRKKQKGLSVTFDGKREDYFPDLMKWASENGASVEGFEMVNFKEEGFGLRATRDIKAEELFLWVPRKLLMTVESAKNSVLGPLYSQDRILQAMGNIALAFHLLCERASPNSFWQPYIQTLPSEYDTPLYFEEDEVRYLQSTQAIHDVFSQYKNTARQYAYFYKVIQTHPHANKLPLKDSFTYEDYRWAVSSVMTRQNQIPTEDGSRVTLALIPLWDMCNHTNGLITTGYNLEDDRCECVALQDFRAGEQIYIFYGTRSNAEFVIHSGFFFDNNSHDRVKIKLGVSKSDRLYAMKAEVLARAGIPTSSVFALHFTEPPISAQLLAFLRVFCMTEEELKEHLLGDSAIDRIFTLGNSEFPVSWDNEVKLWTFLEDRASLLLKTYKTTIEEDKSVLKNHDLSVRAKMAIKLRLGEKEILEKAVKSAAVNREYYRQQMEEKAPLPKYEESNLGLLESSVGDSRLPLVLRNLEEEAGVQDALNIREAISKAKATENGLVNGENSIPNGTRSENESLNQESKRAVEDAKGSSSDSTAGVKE
Chain of UniProt P32300 (whole entry, looked up): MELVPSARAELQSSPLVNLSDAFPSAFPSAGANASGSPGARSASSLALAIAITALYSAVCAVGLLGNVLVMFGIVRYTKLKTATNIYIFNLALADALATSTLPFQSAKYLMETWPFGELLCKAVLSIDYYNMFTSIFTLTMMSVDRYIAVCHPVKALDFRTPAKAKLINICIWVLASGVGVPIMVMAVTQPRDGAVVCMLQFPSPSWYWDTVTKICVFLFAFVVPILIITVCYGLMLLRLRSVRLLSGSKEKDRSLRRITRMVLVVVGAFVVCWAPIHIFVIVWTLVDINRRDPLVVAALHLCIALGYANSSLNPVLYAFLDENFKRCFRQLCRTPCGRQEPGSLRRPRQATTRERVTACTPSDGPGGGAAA
Chain of UniProt Q9H4M9 (whole entry, looked up): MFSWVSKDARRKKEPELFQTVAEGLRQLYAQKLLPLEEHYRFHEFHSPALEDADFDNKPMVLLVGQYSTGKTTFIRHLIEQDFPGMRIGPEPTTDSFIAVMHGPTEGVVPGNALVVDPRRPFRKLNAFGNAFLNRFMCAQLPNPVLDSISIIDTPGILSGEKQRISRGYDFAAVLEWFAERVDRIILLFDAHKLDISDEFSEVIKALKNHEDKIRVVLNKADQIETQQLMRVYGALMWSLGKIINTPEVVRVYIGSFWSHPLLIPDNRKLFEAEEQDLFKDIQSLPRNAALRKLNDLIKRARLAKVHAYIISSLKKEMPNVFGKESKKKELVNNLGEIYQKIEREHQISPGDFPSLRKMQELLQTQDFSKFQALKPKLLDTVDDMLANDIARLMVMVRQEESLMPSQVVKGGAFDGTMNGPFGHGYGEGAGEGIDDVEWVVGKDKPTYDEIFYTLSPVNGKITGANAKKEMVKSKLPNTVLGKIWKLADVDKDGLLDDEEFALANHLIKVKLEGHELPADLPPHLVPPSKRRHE
Chain of UniProt Q99436 (whole entry, looked up): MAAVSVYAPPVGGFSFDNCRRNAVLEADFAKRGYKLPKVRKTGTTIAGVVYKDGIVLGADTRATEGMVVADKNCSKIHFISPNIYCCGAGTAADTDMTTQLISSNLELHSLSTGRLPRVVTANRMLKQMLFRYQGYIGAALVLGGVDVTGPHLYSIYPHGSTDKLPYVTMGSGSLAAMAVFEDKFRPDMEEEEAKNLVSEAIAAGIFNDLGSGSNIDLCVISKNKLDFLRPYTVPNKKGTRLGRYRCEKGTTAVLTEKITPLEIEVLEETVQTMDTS
Chain of UniProt P06733 (whole entry, looked up): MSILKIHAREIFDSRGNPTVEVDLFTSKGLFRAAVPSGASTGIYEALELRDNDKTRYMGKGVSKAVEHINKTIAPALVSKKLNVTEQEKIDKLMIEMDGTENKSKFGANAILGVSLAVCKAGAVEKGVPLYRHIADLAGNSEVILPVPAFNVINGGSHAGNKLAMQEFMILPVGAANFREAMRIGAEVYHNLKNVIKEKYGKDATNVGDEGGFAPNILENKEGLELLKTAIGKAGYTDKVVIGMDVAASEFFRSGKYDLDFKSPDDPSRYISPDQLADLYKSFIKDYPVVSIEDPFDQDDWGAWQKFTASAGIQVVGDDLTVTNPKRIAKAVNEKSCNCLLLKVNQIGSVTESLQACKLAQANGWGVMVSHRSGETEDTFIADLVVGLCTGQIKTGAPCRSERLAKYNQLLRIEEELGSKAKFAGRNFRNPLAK
Chain of UniProt Q9NUW8 (whole entry, looked up): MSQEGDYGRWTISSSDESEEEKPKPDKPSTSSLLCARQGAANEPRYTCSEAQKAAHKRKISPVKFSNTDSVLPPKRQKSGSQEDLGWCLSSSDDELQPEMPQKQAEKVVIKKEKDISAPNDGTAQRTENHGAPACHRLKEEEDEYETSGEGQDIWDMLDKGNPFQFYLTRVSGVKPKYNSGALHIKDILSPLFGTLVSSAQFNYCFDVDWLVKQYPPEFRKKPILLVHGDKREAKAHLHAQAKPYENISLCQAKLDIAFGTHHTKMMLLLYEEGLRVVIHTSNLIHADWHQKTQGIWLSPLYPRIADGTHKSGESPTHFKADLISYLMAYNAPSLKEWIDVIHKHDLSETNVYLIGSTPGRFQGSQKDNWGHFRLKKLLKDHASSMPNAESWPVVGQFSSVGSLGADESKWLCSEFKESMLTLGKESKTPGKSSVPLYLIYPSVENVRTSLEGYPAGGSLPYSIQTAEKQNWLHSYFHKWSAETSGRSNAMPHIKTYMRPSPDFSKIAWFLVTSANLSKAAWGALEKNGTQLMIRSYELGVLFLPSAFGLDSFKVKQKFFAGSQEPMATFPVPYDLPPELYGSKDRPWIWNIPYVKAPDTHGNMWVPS

CCn1nnc(-c2cccc(NC(=O)[C@H](C)CS)c2)n1  IC50 (blaNDM-1 (Klebsiella pneumoniae, UniProt C7C422); enzyme activity, inhibitor, fluorescence; with preincubation): 3.02 µM
CC[C@H](C)[C@@H]1NC(=O)[C@H](Cc2ccc(O)cc2)NC(=O)[C@H](CC(N)=O)NC(=O)[C@H](CCC(N)=O)NC(=O)[C@@H]2CSSC[C@@H]3NC(=O)[C@H](CCC(=O)O)NC(=O)[C@H](Cc4c[nH]c5ccccc45)NC(=O)[C@@H]4CCCN4C(=O)[C@@H]4CCCN4C(=O)[C@@H]4CCCN4C(=O)[C@H](CCC(N)=O)NC(=O)[C@H](CC(C)C)NC(=O)[C@H](CCC(=O)O)NC(=O)[C@H](Cc4ccccc4)NC(=O)[C@H](CO)NC(=O)[C@H](Cc4ccc(O)cc4)NC(=O)[C@H](CO)NC(=O)CNC(=O)[C@H](CCCNC(=N)N)NC(=O)CNC(=O)[C@H](Cc4ccccc4)NC(=O)[C@H](CSSC[C@@H](C(=O)O)NC(=O)[C@H](CCC(N)=O)NC(=O)[C@H](Cc4ccc(O)cc4)NC3=O)NC(=O)[C@H](CSSC[C@H](NC(=O)[C@H](Cc3ccccc3)NC(=O)[C@H](C)NC(=O)[C@H](CCC(=O)O)NC(=O)[C@@H]3CCC(=O)N3)C(=O)N[C@@H](Cc3ccccc3)C(=O)N[C@@H](CO)C(=O)N[C@@H](CC(=O)O)C(=O)N[C@@H](CCCNC(=N)N)C(=O)N[C@@H](Cc3ccccc3)C(=O)N2)NC(=O)[C@H](CC(=O)O)NC(=O)[C@@H]2CCCN2C(=O)[C@H]([C@@H](C)CC)NC(=O)[C@H](CO)NC(=O)CNC1=O  IC50 (TDP1 (Homo sapiens, UniProt Q9NUW8); enzyme activity, inhibitor, FRET; pH 7.4): > 10 µM
COC(=O)C1CN1S(=O)(=O)c1cccc(C(F)(F)F)c1 (centres unmarked)  IC50 (PDIA3; enzyme activity, inhibitor, absorbance; pH 7.6): 200 µM
CNC(=O)C1CCN(c2ccccc2NC(=O)c2ccc(-c3cc(O)ccc3C)c(C)n2)CC1  IC50 (EPHA4 (Homo sapiens, UniProt P54764); target engagement in cells, BRET): 0.0023 µM
C[C@@H](O)[C@H](NC(=O)[C@H](CCCCN)NC(=O)COCCN)C(=O)N[C@@H](CCCNC(=N)N)C(=O)NC(C)(C)C(=O)N[C@@H](CCCNC(=N)N)C(=O)NC(C)(C)C(=O)N[C@H](C(=O)N[C@@H](CO)C(=O)N[C@@H](Cc1c[nH]cn1)C(=O)N[C@@H](Cc1ccc(O)cc1)C(=O)NCC(=O)O)[C@@H](C)O  IC50 (Integrin alpha-2, with integrin beta-1 (Homo sapiens, UniProt P17301); K562 expressing integrin α2; 60 min, 37 °C): 0.00015 µM
CO/C(=C\C(=O)c1ccc2occc2c1OC)c1ccccc1  IC50 (APP (Homo sapiens, UniProt P05067); amyloid aggregation, inhibitor, fluorescence): > 200 µM
CN(C)C(=O)[C@H]1NC(=O)c2cnccc2-c2ccc(cc2)C(F)(F)CCCC(F)(F)c2cccc1c2  IC50 (NKG2-D type II integral membrane protein, with ULBP6 (KLRK1, Homo sapiens, UniProt P26718); ligand binding, inhibitor, TR-FRET; HEK293 expressing NKG2D and DAP10; added: ULBP6-AF647): 4.5 ± 0.5 µM
CC[N+](CC)(CC)CC  IC50 (Potassium channel protein kcv (A250R, Paramecium bursaria Chlorella virus 1, UniProt Q84568)): 110 ± 20 µM
NC[C@@H]1O[C@H](O[C@H]2[C@@H](O)[C@H](O[C@@H]3[C@@H](O)[C@H](N)C[C@H](N)[C@H]3O[C@H]3O[C@H](CN)[C@@H](O)[C@H](O)[C@H]3N)O[C@@H]2Cn2cc(CCCCCCc3cn(C[C@H]4O[C@@H](O[C@@H]5[C@@H](O)[C@H](N)C[C@H](N)[C@H]5O[C@H]5O[C@H](CN)[C@@H](O)[C@H](O)[C@H]5N)[C@H](O)[C@@H]4O[C@H]4O[C@@H](CN)[C@@H](O)[C@H](O)[C@H]4N)nn3)nn2)[C@H](N)[C@@H](O)[C@@H]1O  IC50 (HIV-1 TAR RNA; Tat peptide binding, FRET competition; pH 7.4, 25 °C): 0.059 ± 0.011 µM
CC(C)[C@H](NC(=O)[C@@H]1CNC(=O)NCCCC[C@@H](NC(=O)[C@@H](N)Cc2ccc(O)cc2)C(=O)NCC(=O)N[C@@H](Cc2ccccc2)C(=O)N1)C(=O)N[C@H](C(=O)NCC(=O)NCCNC(N)=O)C(C)C  IC50 (Oprd1 (Mus musculus, UniProt P32300); contraction inhibition, agonist; mouse, isolated vas deferens): 0.00185 ± 0.0001 µM
C=C(NC(=O)C(=C)NC(=O)c1csc(C2=NC3c4csc(n4)C4NC(=O)c5csc(n5)C(C(C)(O)C(C)O)NC(=O)C5CSC(=N5)C(=CC)NC(=O)C(C(C)O)NC(=O)c5csc(n5)C3(CC2)NC(=O)C(C)NC(=O)C(=C)NC(=O)C(C(C)CC)NC2C=Cc3c(C(C)O)cc(nc3C2O)C(=O)OC4C)n1)C(N)=O (centres unmarked)  IC50 (Proteasome subunit beta type-7, in 20S proteasome (PSMB7, Homo sapiens, UniProt Q99436); trypsin-like activity, inhibitor; purified human 20S proteasome; 37 °C, 15 min preincubation, added: Boc-Leu-Arg-Arg-AMC): 2.1 ± 0.4 µM
COc1ccccc1C(NS(=O)(=O)c1cc2ccc(O)nc2cc1Cl)C(=O)N(CC(=O)NCCn1cc(COCCOCCNc2cccc3c2C(=O)N(C2CCC(=O)NC2=O)C3=O)nn1)Cc1cccs1 (mixture of isomers)  IC50 (OGT (Homo sapiens, UniProt O15294); enzyme activity, inhibitor, fluorescence): 0.77 µM
CCCC[C@@H]1NC(=O)[C@H](Cc2ccccc2)NC(=O)CNC(=O)[C@H](NC(=O)[C@@H](N)Cc2ccc(O)cc2)C(C)(C)SSC(C)(C)[C@@H](C(=O)N[C@@H](Cc2c[nH]c3ccccc23)C(=O)NCc2cc(C(F)(F)F)cc(C(F)(F)F)c2)NC(=O)[C@@H]2CCCN2C1=O  IC50 (Oprm1 (Rattus norvegicus, UniProt P33535)): 3.72 µM
O=C1C(P(=O)(O)O)CC(O)N1O (centres unmarked)  IC50 (Alpha-enolase (ENO1, Homo sapiens, UniProt P06733); enzyme activity, inhibitor): 0.014 µM
CC[C@H](C)[C@@H]1NC(=O)[C@H](C)NC(=O)[C@H](CC(C)C)NC(=O)[C@H](Cc2ccc(O)cc2)NC(=O)[C@H](CCCNC(=N)N)NC(=O)CNC(=O)[C@H](CC(N)=O)NC(=O)[C@H](CC(C)C)NC(=O)[C@H]([C@@H](C)CC)NC(=O)[C@H](Cc2ccccc2)NC(=O)[C@H](C)NC(=O)[C@H]([C@@H](C)CC)NC(=O)[C@H]([C@@H](C)O)NC(=O)[C@@H](Cc2ccc(O)cc2)NC(=O)CSC[C@@H](C(=O)NCC(N)=O)NC(=O)[C@H](CCCNC(=N)N)NC(=O)[C@H](C(C)C)NC1=O  IC50 (NNMT; enzyme activity, inhibitor, mass spectrometry): 1.21 µM
CSc1nc2[nH]nc([N+](=O)[O-])c(=O)n2n1  IC50 (ABCB1 (Homo sapiens, UniProt P08183); transport, inhibitor): 72 µM
O=C1c2c(O)cc(O)cc2OC2(c3ccc(O)c(O)c3)Oc3cc4oc(-c5ccc(O)cc5)c(O)c(=O)c4c(O)c3C12O (racemic)  IC50 (mushroom tyrosinase; pH 6.8): 28.3 µM
CNC(=O)NC(=N)NCCC[C@@H]1NC(=O)[C@@H]([C@H](C)O)NC(=O)C[C@@H](C(=O)O)NC(=O)C[C@@H](C(=O)O)NC(=O)[C@H](Cc2ccccc2)N(C)C1=O  IC50 (Endochitinase B1 (Aspergillus fumigatus, UniProt Q873X9); enzyme activity, inhibitor, fluorometric; 10 min, pH 5.5, 37 °C, added: 20 µM 4-MU-chitobiose): 0.182 µM
CN(C)C(=O)[C@@H](NC(=O)c1cnccc1-c1ccc(C(F)(F)F)cc1)c1cc(Cl)cc(C(F)(F)F)c1  IC50 (NKG2-D type II integral membrane protein, with MICA (KLRK1, Homo sapiens, UniProt P26718); ligand binding, inhibitor, TR-FRET; HEK293 expressing NKG2D and DAP10; added: MICA-Alexa647): 0.1 ± 0.03 µM
C[C@H](CCC(=O)NCCC(=O)O)[C@H]1CC[C@H]2[C@@H]3CC[C@@H]4C[C@H](O)CC[C@]4(C)[C@H]3C[C@H](O)[C@]12C  IC50 (SHMT2 (Homo sapiens, UniProt P34897); serine to glycine conversion, inhibitor; pH 7.5, 1% DMSO, added: L-serine 1 mM, THF 0.2 mM): 0.24 µM
CC(=O)N[C@@H](CCCNC(=N)N)C(=O)N[C@H](C(=O)N1CCC[C@H]1C(=O)N[C@@H](COP(=O)(O)O)C(=O)N[C@@H](CC(C)C)C(=O)N1CCC[C@H]1C(=O)N[C@H](C)C(=O)N1CCC[C@H]1C(c1ccccc1)c1ccccc1)[C@@H](C)O  IC50 (YWHAZ (Homo sapiens, UniProt P63104); peptide binding, inhibitor, competitive fluorescence polarization; 10 µM protein, added: 100 nM FAM-labelled diphosphorylated Tau peptide): 6.2 µM
CC[C@H](C)[C@@H]1NC(=O)[C@H](Cc2ccccc2)NC(=O)[C@H]([C@@H](C)O)NC(=O)[C@H]([C@@H](C)CC)NC(=O)[C@H](CCCNC(=N)N)NC(=O)[C@@H](Cc2ccc(O)cc2)NC(=O)CSC[C@@H](C(=O)NCC(N)=O)NC(=O)[C@H](Cc2ccccc2)NC(=O)[C@H](C(C)C)NC(=O)[C@H]([C@@H](C)CC)NC(=O)[C@H](CC(C)C)NC(=O)[C@H]([C@@H](C)CC)NC(=O)[C@H](CCC(N)=O)NC(=O)[C@H](CC(=O)O)NC(=O)[C@H](CC(N)=O)NC(=O)[C@H](CC(C)C)NC(=O)[C@H](CCCNC(=N)N)NC1=O  IC50 (NNMT; enzyme activity, inhibitor, mass spectrometry): 0.437 µM
NC[C@@H](CC[C@H](N)C(=O)O)C[C@H]1O[C@@H](n2cnc3c(N)ncnc32)[C@H](O)[C@@H]1O  IC50 (Actin-histidine N-methyltransferase (SETD3, Homo sapiens, UniProt Q86TU7); enzyme activity, inhibitor, radiometric): 3.4 µM
CC(=O)N[C@H]1CSCc2ccccc2CSC[C@@H](C(=O)O)NC(=O)[C@H](CCC(=O)O)NC(=O)[C@H](Cc2ccccc2)NC(=O)[C@@H]2CCCN2C(=O)[C@H](CC(N)=O)NC1=O  IC50 (EH domain-containing protein 1, EH domain (Homo sapiens, UniProt Q9H4M9)): 34 ± 3.8 µM
CC(C)(C)c1ccc(S(=O)(=O)N2CC2C(N)=O)cc1 (centres unmarked)  IC50 (PDIA3; enzyme activity, inhibitor, absorbance; pH 7.6): 77 µM
Cc1c(C(=O)CC2OC(=O)C(Cl)=C2Cl)sc2ccc(Cl)cc12 (centres unmarked)  IC50 (Genome polyprotein, NS3 protease (Hepatitis C virus genotype 1b, UniProt P26663); Hepatitis C virus): 71 ± 14 µM
